Experimental data pooled from the literature.
Compare with care: the assays were run in different laboratories. Values joined by “and” are separate records of one study, mostly repeats; a detail may differ.
Target: Serine/threonine-protein kinase/endoribonuclease IRE1 (ERN1, Homo sapiens, UniProt O75460)

C=CC(=O)N1CCCC(n2c(=O)c3ncccc3n(Cc3ccc(Oc4ccccc4)cc3)c2=O)C1 (centres unmarked)  remaining binding (cell-free assay, competition with immobilised ligand; 1 µM): 90%
COc1c(Cl)cccc1Nc1c(-c2ccncc2C#C[C@@]2(C)CCCN2C(=O)/C=C/CN(C)C)[nH]c2c1C(=O)NCC2  remaining binding (cell-free assay, competition with immobilised ligand; 3 µM): 55%
Cc1nc2c(F)cc(-c3nc(Nc4ccc(CNC(=O)CCCCCCC(=O)NO)cc4)ncc3F)cc2n1C(C)C  inhibition (enzyme activity, inhibitor; 1 µM): 57%
CC(C)=CC1OC(C)(C)C2C=C3C(=O)C(Cl)=CC(O)C3C3C(O)C4OC4C(=O)C132 (centres unmarked)  remaining binding (cell-free assay, competition with immobilised ligand; 10 µM): 84%
N[C@H]1CC[C@H](Nc2nccc(-c3cccnc3Oc3ccc(NC(=O)NC4CC4)c4ccccc34)n2)CC1  log2 LFQ intensity (kinobead competition pulldown; HEK293/HCT116 lysate mixture; 10 µM, 1 h, 4 °C; lower = stronger competition): 23.3 and 24.7 and 21.8 and 23.2
COc1cc(Nc2nc(C)cc(-c3cnn4nc(OC)ccc34)n2)cc(C(F)(F)F)c1  remaining activity (inhibitor; 1 µM; baseline: control): 100%
Cc1ccc(-c2c(/C=C(\C#N)C(=O)NC(C)C)n(CCCO)c3ncnc(N)c23)cc1  remaining binding (cell-free assay, competition with immobilised ligand; 1 µM): 100%
O=C(Cc1ccc(OCc2ccccc2)cc1)NC1(C(=O)O)CCN(C(=O)c2ccc(-c3cccc(Cl)c3)cc2)CC1  activity vs control (enzyme activity, inhibitor; 10 µM): 101%
CCN1CCN(Cc2ccc(C(=O)Nc3ccc(C)c(NCc4cnc5[nH]ccc5c4OC)c3)cc2C(F)(F)F)CC1  remaining binding (binding, competition with immobilised ligand; 1 µM): 12%
CN1CC[C@@H](COc2cnc(C#N)cc2-c2ccn3nc(NC(=O)C4CC4)cc3c2)C1  inhibition (enzyme activity, inhibitor; 1 µM): 3%
CNC(=O)C[C@H](Cc1ccc(C#N)cc1)NC(=O)c1cc(-c2ccc(CN[C@H](C)c3ccc(C)cc3)o2)ccc1Cl  activity vs control (enzyme activity, inhibitor; 1 µM): 95%
Cc1cnc2nc1Nc1cccc(c1)COC/C=C/COCc1cc(ccc1OCCN1CCOCC1)N2  remaining binding (binding; 0.1 µM): 83%
C=CC(=O)N1Cc2nc(-c3cc(-c4cc(Cl)cnc4Cl)c(F)cc3F)n(-c3ccncn3)c2C1  inhibition (cell-free assay, inhibitor; 1 µM): 3.6%
COc1cc(Nc2nccc(-c3cnn4nc(OC)ccc34)n2)cc(C(F)(F)F)c1  remaining binding (binding, competition with immobilised ligand; 1 µM): 74%
Nc1ncc2c(n1)-c1c([nH]c3ccc(C4=CCOCC4)cc13)CCC2  remaining binding (binding, competition with immobilised ligand; 1 µM): 63%
C=CC(=O)N1CCc2ccc(-n3c(=O)ccc4cnc5ccc(-c6cnn(C)c6)cc5c43)cc21  remaining binding (KINOMEscan; 1 µM; baseline: DMSO control): 94%
C=CC(=O)Nc1cc(-c2nn(C3CCN(CCNC(=O)[C@H](C)CCC45CC6CC(CC(C6)C4)C5)CC3)c3ncnc(N)c23)ccc1Oc1ccccc1  inhibition (inhibitor, KiNativ profiling; biochemical; 2 µM): -4.8%
CN1CCN(Cc2ccc(-c3ccc(CO[C@H]4CCC[C@@H]4NC(=O)c4cc(-c5cnn(C)c5)cnc4N)cc3)cc2)CC1  inhibition (enzyme activity, inhibitor; 0.1 µM): 6%
Nc1ncc(-c2cc(-c3cnn(CC(F)(F)F)c3)ncc2F)nc1C(=O)NC1CNCC(F)C1 (centres unmarked)  remaining activity (enzyme activity; 1 µM; baseline: DMSO control): 35.8%
CNC1C[S+]2CC[S+]3CC[S+](C1)[Ru-4]321([N]=C=S)[n]2c3ccc(OC)cc3c3c4c(c5cc(F)c[n+]1c5c32)C(=O)NC4=O (centres unmarked)  remaining binding (KinomeScan; 0.1 µM; baseline: untreated): 100%
CCn1cc(C(=O)O)c(=O)c2c(N)c(F)c(NC3CCCCC3)cc21  inhibition (kinase activity; 0.1 µM, added: ATP at Km): 10.2%
CNC(=O)C1CCN(c2cc(C)c(F)cc2NC(=O)c2ccc(-c3cc(O)ccc3C)c(C)c2)CC1  remaining binding (binding, competition with immobilised ligand; 1 µM): 98%
CS(=O)(=O)Nc1cccc(-c2csc3cnc(Nc4ccc(N5CCN(CCCCCOc6cccc7c6C(=O)N(C6CCC(=O)NC6=O)C7=O)CC5)cc4)nc23)c1 (centres unmarked)  inhibition (probe labelling, inhibitor, KiNativ chemoproteomics; MOLT-4; 1 µM): -26.5%

Repeated from above:
O=C(Cc1ccc(OCc2ccccc2)cc1)NC1(C(=O)O)CCN(C(=O)c2ccc(-c3cccc(Cl)c3)cc2)CC1  activity vs control (enzyme activity, inhibitor; 10 µM): 101%
CNC(=O)C[C@H](Cc1ccc(C#N)cc1)NC(=O)c1cc(-c2ccc(CN[C@H](C)c3ccc(C)cc3)o2)ccc1Cl  activity vs control (enzyme activity, inhibitor; 1 µM): 95%
